Experimental data of several laboratories.
Lines come from different studies, so protocols differ. Several values in a cell are separate wells, animals, samples, runs or records. ± marks the error that the study gave.

| Structure (SMILES) | cell line | assay | system | setting | how to read | quantity | value |
| --- | --- | --- | --- | --- | --- | --- | --- |
| CSC(=S)N/N=C(\C)c1ccc(Nc2nnc(-c3ccc(Cl)cc3)c3ccccc23)cc1 | HepG2 | cell growth or viability, MTT | – | 78 nM, 24 h | – | viability | 99.1% |
| O=C(C[Se]C(=O)c1ccc2ccccc2c1)Nc1cccc(C(F)(F)F)c1 | NCI60 breast subpanel mean | cell growth | – | – | – | TGI | 4.24 µM |
| COC(=O)c1cc(NC2=NC(=O)C(=Cc3ccc(C)cc3)S2)ccc1OC(C)=O | MCF7 | GC-MS, item: Stearic acid | – | 1 µM | relative to: DMSO | metabolite level | 1.13 fold change |
| O=C(C[Se]C(=O)C12CC3CC(CC(C3)C1)C2)Nc1cccc(C(F)(F)F)c1 | NCI60 breast subpanel mean | cell growth | – | – | – | TGI | 17.3 µM |
| C1=[N+]2CCCC[N+]3=Cc4ccc5[n]4[Au-]23[n]2c1ccc2-c1nc2ccccc2nc1-5.F[P-](F)(F)(F)(F)F | A498 | NCI60 five-dose screen | – | – | – | TGI | 4 -log M |
| O=C(N[C@@H](Cc1ccc(OCCCCC2CCNCC2)cc1)C(=O)O)c1nc2ccccc2o1.O=C(O)C(F)(F)F | platelets | impedance aggregometry | human, diluted whole blood | 150 nM, with: ADP | relative to: untreated | ADP-induced aggregation | 0.127 and 0.275 |
| O=C(C[Se]C(=O)c1ccccc1Nc1ccccc1)Nc1cccc(C(F)(F)F)c1 | NCI60 prostate subpanel (PC-3, DU-145) | cell growth | – | 10 µM, 48 h, one-dose | – | mean growth percent | -78.6% |
| C[C@@H]1Cc2c([nH]c3ccccc23)[C@@H](c2c(F)cc(/C=C/C(=O)O)cc2F)N1C12CC(C1)C2 | MCF7 | RNA-seq, item: PSCA mRNA | – | 1 µM, 24 h, E2-suppressed gene | relative to: DMSO vehicle | log2 fold change | 1.64 |
| Cn1ncc2cc(-c3cncc(Cl)c3N3CCC4(CCNC4=O)CC3)ccc21 | LS174T | gene expression, microarray, item: GSDMA mRNA | – | concentration not given, 4 h | relative to: untreated cells | log2 fold change | -1.17 |
| COC(=O)[C@H](C)NC(=O)[C@H](C)NC(=O)c1csc(-c2cccnc2)n1 | SCC-90 | cell viability | – | – | – | EC50 | > 30 µM |
| CN(C)c1ccc(-n2cc(COC(=O)[C@@]3(C)C=C(C(=O)OC(C)(C)C)C(=O)CC3)nn2)cc1 | HeLa | quantitative western blot | – | concentration not given, 15 (unit not given), with: EGF | – | pERK/ERK ratio | 0.226 |
| Cc1cc(NC2CCN(C)CC2)ccc1-c1cc2c(N3CCC[C@H](C(=O)NCc4ccc(OC(F)(F)F)cc4)C3)ncnc2[nH]1 | NCI-H3122 | cell growth or viability, MTT | – | 1 µg/mL, 72 h | – | inhibition | 69.7% |
| Cc1cccc(-c2cccc(C)n2)n1.Cc1cccc(-c2cccc(C)n2)n1.F[P-](F)(F)(F)(F)F.F[P-](F)(F)(F)(F)F.[Ru+2].c1cc2ccc3ccc(-c4nc5c6cccnc6c6ncccc6c5[nH]4)c4ccc(c1)c2c34 | SK-MEL-28 | – | – | 1% O2, with: blue light 453 nm, 100 J/cm2 | relative to: dark over light EC50 | phototoxicity index | 2 |
| CCCCCCCCCCCCCCCC(=O)OCC(CSC[C@H](N)C(=O)N[C@@H](CO)C(=O)N[C@@H](CCCCN)C(=O)N[C@@H](CCCCN)C(=O)N[C@@H](CCCCN)C(=O)N[C@@H](CCCCN)C(=O)NCCCCCC(=O)N[C@@H](CCCCN)C(=O)N[C@@H](CC(C)C)C(=O)N[C@H](C(=O)N[C@@H](Cc1ccccc1)C(=O)N[C@@H](Cc1ccccc1)C(=O)N[C@@H](Cc1ccc2ccccc2c1)C(=O)O)C(C)C)OC(=O)CCCCCCCCCCCCCCC (stereo partly drawn) | BV-2 | RNA-seq, item: Il4ra | – | – | – | gene expression | 12.7 FPKM and 12.5 FPKM and 14.2 FPKM |
| COc1cc(N2CCN(C(=O)C3CCCN3)CC2)ccc1Nc1ncc(Cl)c(Nc2ccccc2P(C)(C)=O)n1 (stereo not drawn) | Ba/F3 EML4-ALK | annexin V flow cytometry | – | concentration not given, 6 h | – | late apoptotic cells | 9.7% |
| CCN(CC)CC(=O)Nc1cccc(-n2cc(-c3ccc4ccc(-c5cn(-c6cccc(NC(=O)CN(CC)CC)c6)nn5)cc4c3)nn2)c1 | RCC4 | PCR angiogenesis array, item: PTGS1 | – | 5 x IC50, 6 h, normoxia | relative to: untreated | fold regulation | -1.91 |
| CCOc1cncc(-c2ccc(NC(=O)C3(c4ccnc(NS(=O)(=O)C5CC5)n4)CCOCC3)nc2)n1 | SK-HEP1 | cell proliferation, CellTiter-Glo | – | 72 h | – | IC50 | 10 µM |
| C=CC(=O)N1[C@H](c2ccc3c(c2)OCO3)c2[nH]c3ccccc3c2C[C@@H]1C(=O)NC1CC1 | rat DRG neurons | – | – | 0.01372 µM, 48 h, with: vincristine 40 nM | – | neuron degeneration | 79.7% and 77.2% |
| CN1CCCNC(=O)c2cccc(c2)C(=O)NCCCN(C)CCCNc2cccc3c2C(=O)c2cccc(c2C3=O)NCCC1 | SAS | RNA-Seq, item: NUDT12 mRNA | – | 1 µM, 6 h | relative to: untreated cells | log2 fold change | 1.95 |
| Cc1cccc(-c2cccc(C)n2)n1.Cc1cccc(-c2cccc(C)n2)n1.F[P-](F)(F)(F)(F)F.F[P-](F)(F)(F)(F)F.[Ru+2].c1ccc2c(c1)Cc1cc(-c3nc4c5cccnc5c5ncccc5c4[nH]3)ccc1-2 | SK-MEL-28 | – | – | normoxia, with: blue light 453 nm, 100 J/cm2 | relative to: dark over light EC50 | phototoxicity index | 6 |
| O=C(C[Se]C(=O)c1cc2ccccc2[nH]1)Nc1cccc(C(F)(F)F)c1 | NCI60 prostate subpanel (PC-3, DU-145) | cell growth | – | 10 µM, 48 h, one-dose | – | mean growth percent | -81.1% |
| CC(C)c1ccc(N(C)c2ccc3c(c2)OCC[C@H]3CNc2cnccc2C(=O)O)cc1 | BT-474 | cell viability, CellTiter-Glo | – | 7 days | – | IC50 | ≥ 10 µM |
| CSCC[C@H](NC(=O)[C@H](CCC(N)=O)NC(=O)[C@H](CCCCN)NC(=O)[C@H](CCCNC(=N)N)NC(=O)[C@H](Cc1ccc(O)cc1)NC(=O)[C@H](CCCNC(=N)N)NC(=O)[C@H](CO)NC(=O)[C@H](Cc1ccc(O)cc1)NC(=O)[C@H](CO)NC(=O)[C@H](CC(=O)O)NC(=O)[C@@H](NC(=O)[C@@H](N)Cc1ccccc1)[C@@H](C)O)C(=O)N[C@@H](C)C(=O)N[C@H](C(=O)N[C@@H](CCCCN)C(=O)N[C@@H](CCCCN)C(=O)N[C@@H](Cc1ccc(O)cc1)C(=O)N[C@@H](CC(C)C)C(=O)N[C@@H](C)C(=O)N[C@@H](C)C(=O)N[C@H](C(=O)N[C@@H](CC(C)C)C(=O)NCC(=O)N[C@@H](CCCCN)C(=O)N[C@@H](CCCNC(=N)N)C(=O)N[C@@H](Cc1ccc(O)cc1)C(=O)N[C@@H](CCCCN)C(=O)N[C@@H](CCC(N)=O)C(=O)N[C@@H](CCCCn1cc(C[C@H](NC(=O)CNC(=O)[C@H](CO)NC(=O)[C@H](CCCNC(=N)N)NC(=O)[C@H](CO)NC(=O)[C@H](CC(C)C)NC(=O)[C@H](CC(C)C)NC(=O)CNC(=O)[C@H](C)NC(=O)[C@H](CC(C)C)NC(=O)[C@H](CCCNC(=N)N)NC(=O)[C@H](Cc2c[nH]cn2)NC(=O)[C@@H](NC(=O)[C@@H](N)C(C)C)[C@@H](C)O)C(=O)N[C@H](C(=O)N[C@H](C(=O)N[C@@H](CCCCN)C(=O)N[C@@H](CC(N)=O)C(=O)N[C@@H](CC(N)=O)C(=O)N[C@@H](Cc2ccccc2)C(=O)N[C@H](C(=O)N2CCC[C@H]2C(=O)N[C@H](C(=O)N[C@@H](CC(N)=O)C(=O)N[C@H](C(=O)NCC(=O)N[C@@H](CO)C(=O)N[C@@H](CCCCN)C(=O)N[C@@H](C)C(=O)N[C@@H](Cc2ccccc2)C(N)=O)C(C)C)[C@@H](C)O)C(C)C)C(C)C)C(C)C)nn1)C(=O)N[C@H](C(=O)N[C@@H](CCCCN)C(=O)N[C@@H](CC(N)=O)C(=O)N[C@@H](CCCCN)C(N)=O)C(C)C)C(C)C)C(C)C | transfected COS-7 cells | cAMP accumulation, antagonist | – | with: VIP | – | pA2 | 5.45 |
| CCN(C(=O)c1cc(F)ccc1Oc1nncnc1N1CCC2(C1)CN([C@H](CCCN(C)CCOC)C(C)C)C2)C(C)C | RD | – | muscle | 168 h | – | GI50 | > 10 µM |
| CC1(C)C[C@@H](Nc2cccc(-c3sc(C(=O)O)c(OCC(=O)O)c3Cl)c2)CCN1S(=O)(=O)Cc1cccc(NC(=O)CN2CCC(c3ccc4c(c3)oc(=O)n4C3CCC(=O)NC3=O)CC2)c1 (stereo partly drawn) | B16-F10 | HTRF, item: phospho-STAT1 Tyr701 | – | 1.1 µM, with: IFN-γ | relative to: DMSO | fold change | 5.08 and 5.21 and 5.06 and 5.18 and 5.25 |
| CNS(=O)(=O)Nc1nccc(Cc2c(C)c3ccc(Oc4ncccc4F)cc3oc2=O)c1F | RD | cell viability | – | 7 days | – | IC50 | 0.0165 µM |
| CC1(C)CC[C@@]2(CO)C(=C3C=C[C@@H]4[C@@]5(C)CC[C@H](O)[C@@](C)(CO)[C@@H]5CC[C@@]4(C)[C@]3(C)C[C@@H]2O)C1 | HepG2, negative control siRNA | Western blot, item: PGC-1α | – | concentration not given, high dose, unit not given, with: ethanol | relative to: β-actin | protein level | 1.25 and 1.11 and 1.63 |
| COc1cccc(OC)c1-c1cc(C(=O)NC2(C(=O)O)C3CC4CC(C3)CC2C4)nn1-c1ccc(C(=O)N(C)CCCN(C)C(=O)[C@H](CCCCNC(=O)[C@H](CC(C)C)NC(=O)C2OC2C(=O)O)NC(=O)CN2CCN(CC(=O)[O-])CCN(CC(=O)[O-])CCN(CC(=O)[O-])CC2)cc1C(C)C.[177Lu+3] (mixture of isomers) | HT-29 | – | – | concentration not given, 60 min | relative to: added activity | internalized fraction | 4.64 ± 0.24% |
| CCCC(CCC)C(=O)OCc1cn(-c2cc3ccccc3oc2=O)nn1 | SNB-19 | – | – | 10 µM, CNS cancer cell line, NCI60 | – | growth percentage | 96% |
| Cc1ncsc1-c1ccc(C(C)NC(=O)C2CC(O)CN2C(=O)C(NC(=O)CCCCCCCCCCN2CCCC(Nc3ncc(Cl)c(Nc4ccccc4S(=O)(=O)C(C)C)n3)C2)C(C)(C)C)cc1 (stereo not drawn) | 22Rv1 | RNA-seq, item: ZC3H10 mRNA | – | concentration not given | relative to: DMSO | log2 fold change | -2.64 |
